Measurements from different studies.
Parts stem from different laboratories: compare values within a part only.

Series 1
Target: Histone acetyltransferase KAT6A, both winged helices, GST fusion (KAT6A, Homo sapiens, UniProt Q92794, residues 1-181)
Technique: protein binding microarray
Form: double-stranded DNA, one strand shown
Medium: in vitro
Concentration: not given
Setting: 8-mer, flanks averaged, mean of 2 arrays, mostly near background
Baseline: not given
Reading: higher = stronger binding
Target sequence (chain): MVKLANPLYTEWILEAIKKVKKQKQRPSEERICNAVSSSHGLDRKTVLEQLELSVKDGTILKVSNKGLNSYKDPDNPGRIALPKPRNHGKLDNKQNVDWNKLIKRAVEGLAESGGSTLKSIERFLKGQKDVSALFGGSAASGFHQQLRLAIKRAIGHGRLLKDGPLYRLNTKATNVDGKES
Oligonucleotide | E-score
TTCACCAA | -0.00202
GCCATAGC | 0.0609
CGGTATAG | 0.186
GCCATTAC | 0.0513
AAGATCAC | -0.0164
CGTGCTTA | 0.041
CACATCCA | -0.124
CAGTCGCC | 0.0244
CTGAGTGC | -0.0701
GCCTTCGA | -0.00624
TCATCCGA | 0.0688
AATTTCGA | -0.0124
AACGTGCC | 0.0498
GGGGCGGA | 0.142
GTAAACAA | -0.0383
ATCCTGGC | -0.146
ATCGCGTC | 0.221
GCAGCTGC | 0.144
CGTGGTCA | -0.119
CCGTTTCA | 0.145
ACCTTATC | -0.0677
CCTATTAG | -0.0322

Series 2
Target: Ras GTPase-activating protein-binding protein 1, C-terminal RGG region (G3BP1, Homo sapiens, UniProt Q13283)
Chain of UniProt Q13283 (whole entry, looked up): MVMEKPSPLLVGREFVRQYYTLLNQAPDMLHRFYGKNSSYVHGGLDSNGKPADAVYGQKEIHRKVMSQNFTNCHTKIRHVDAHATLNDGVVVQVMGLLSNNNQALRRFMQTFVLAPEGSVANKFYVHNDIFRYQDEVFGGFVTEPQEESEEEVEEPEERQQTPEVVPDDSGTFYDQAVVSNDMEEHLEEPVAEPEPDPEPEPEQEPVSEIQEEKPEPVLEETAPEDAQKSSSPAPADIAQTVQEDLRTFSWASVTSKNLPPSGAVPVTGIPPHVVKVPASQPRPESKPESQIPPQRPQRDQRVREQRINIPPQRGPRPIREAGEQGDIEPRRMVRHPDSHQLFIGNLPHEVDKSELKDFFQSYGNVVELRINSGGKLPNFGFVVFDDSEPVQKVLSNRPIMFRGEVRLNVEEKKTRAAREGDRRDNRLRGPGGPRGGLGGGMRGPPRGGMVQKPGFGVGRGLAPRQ
Technique: RNA Bind-n-Seq
Form: RNA
Medium: in vitro
Concentration: 1 µM
Setting: whole 134-nt RNA, ends assumed
Together with: 150 mM KCl
Baseline: input library
Reading: higher = stronger binding
Oligonucleotide | log2 enrichment
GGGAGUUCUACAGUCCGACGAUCCUCAAGUCCUGUGCUACACAUCGUAUGUACCGAAUCGGGUUGGGUUGGGUUGGGAAAGUAUUAUGUUACGCCGUUCGGAUCUGCACUUCCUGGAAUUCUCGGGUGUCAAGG | 2.29
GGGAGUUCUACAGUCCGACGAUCUCCUCAAGUCCUGUGCUACACAUCGUAUGUACCGAAUCGGAGGGAGGGGAGGAAAGUAUUAUGUUACGCCGUUCGGAUCUGCACUUCCAGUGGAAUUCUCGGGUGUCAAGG | -0.607
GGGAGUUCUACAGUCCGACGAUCGAAAUUUGGUUAUGUGGAUUUUGAAUCUGCUGAAGACCUGGAGAAAGCGUUGGAACUCACUGGUUUGAAAGUCUUUGGCAAUGAAAUUAAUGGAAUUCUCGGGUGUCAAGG | -2.93
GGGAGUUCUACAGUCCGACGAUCCACAGACAACACGCACCCAAACAGACACAGAGGGAAGGGGUUGGGAUGGGGACAGGGUGCACAGCAGGGCGGGGUAGGACCCCAGCCCCUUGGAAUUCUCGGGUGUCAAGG | -0.318
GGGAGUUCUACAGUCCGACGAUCUCAAGUCCUGUGCUACACAUCGUAUGUACCGAAUCGGGGCCGGGCCGGCCGGGGAAAGUAUUAUGUUACGCCGUUCGGAUCUGCACUUCCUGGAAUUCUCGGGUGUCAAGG | -1.07
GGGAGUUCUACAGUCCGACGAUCACCAUGGAGGUGGGCAUCUUUGGGAAGUGGGGCAAGGGGGGGAUAGGGAGGGGGGUAACACUUUGGGAACAGGUGGUCCCAGGUCGUUUCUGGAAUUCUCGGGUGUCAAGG | -1
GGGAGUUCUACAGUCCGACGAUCGUCCUGUGCUACACAUCGUAUGUACCGAAUCGGUUUUUUUGGAAAAAAAGGAAAAAGGAAAGUAUUAUGUUACGCCGUUCGGAUCUGCACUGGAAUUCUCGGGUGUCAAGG | -1.77
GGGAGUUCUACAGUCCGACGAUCCACAGACAACACGCACCCACACAGACACAGAGGGAAGGGGUUGGGAUGGGGACAGGGUGCACAGCAGGACGGGGUAGGACCCCAGCCCCUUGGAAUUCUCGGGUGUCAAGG | -1.24
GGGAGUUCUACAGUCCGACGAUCUCCUCAAGUCCUGUGCUACACAUCGUAUGUACCGAAUCGGAGGAGGAAAGGAAAGUAUUAUGUUACGCCGUUCGGAUCUGCACUUCCAGCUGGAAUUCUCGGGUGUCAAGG | -1.5
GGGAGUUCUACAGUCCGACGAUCUGGGAGGUGGAAUUUGUUUAUUUUUUUAGCUCAUUUCCAGGGGUGGGAAUUUUUUUUUAAUAUGUGUCAUGAAUAAAGUUGUUUUUGAAAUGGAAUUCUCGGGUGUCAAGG | 2.8

Series 3
Target: RING finger protein unkempt homolog, zinc fingers 1-6, GST-SBP tag (UNK, Homo sapiens, UniProt Q9C0B0, residues 30-357)
Technique: RNA Bind-n-Seq
Form: RNA
Medium: in vitro
Concentration: not given
Setting: RNA with constant flanks, human and mouse sites, ends assumed
Baseline: input RNA pool
Reading: higher = stronger binding
Construct (chain): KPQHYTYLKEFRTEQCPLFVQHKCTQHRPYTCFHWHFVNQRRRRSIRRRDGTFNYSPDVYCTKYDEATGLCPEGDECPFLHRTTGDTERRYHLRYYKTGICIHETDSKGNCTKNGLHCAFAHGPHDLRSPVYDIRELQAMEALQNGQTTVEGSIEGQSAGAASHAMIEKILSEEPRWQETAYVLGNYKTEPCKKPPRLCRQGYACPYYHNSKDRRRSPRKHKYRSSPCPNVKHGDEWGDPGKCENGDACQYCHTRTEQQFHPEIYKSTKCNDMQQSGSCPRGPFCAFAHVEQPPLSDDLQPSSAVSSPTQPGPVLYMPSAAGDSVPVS
Oligonucleotide | bound/input enrichment
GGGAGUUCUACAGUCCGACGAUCUUAGAAGCCUUUGGACAUGCCAAGACCACACUUAAUGAUUUGUCCAGUUGCUUCAUCAAGUAUUUUGAACUGCAGUUCUGUGAGAGGAAACAACAGCUAACCGGAGCCAGAAUUUAUACACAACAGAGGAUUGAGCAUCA | 0.313 ratio
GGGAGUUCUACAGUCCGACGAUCCUCAAGAGGCAGUUGCAACAACUGCAAGAAGGUACAUUACAGGAAUAUCAGAAGAGAAUGAAAAAACUAGAUCAGCAGUACAAAGAGAGGAUACGGAAUGCAGAACUCUUCCUCCAGCUGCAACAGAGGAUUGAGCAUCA | 0.306 ratio
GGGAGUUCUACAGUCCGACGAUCGUUGUGCAGUAGAGUUCAGACUUCUCAUCCAAUCUUAUAUUGUAGGCAUUUCUCAAGUGUUUUAGAUAUUAAUAACUAACAUUGGGAUUUUACUUUGCCAGCCCCAGCCUUCAGAACUCCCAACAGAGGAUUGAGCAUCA | 1.15 ratio
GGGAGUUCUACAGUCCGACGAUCACAGAUGAAGCUGACCUGGUUCUUGCAAAAGAAGCUAACGUGAAGUGUCCACAGAUUGUGAUAGCAUUUUAUGAAGAGAGACUGACGUGGCACGCAUAUCCAGAGGAUGCGGAAAACAAACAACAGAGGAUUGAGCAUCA | 0.215 ratio
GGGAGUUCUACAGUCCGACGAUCUUUAUAAGUCCAGAGUCUGGUUUUUAACAAGCUGUUCUUCAGUAUUCAGCUUAAGAUAGGCAACUCUUUUCUGUACAUAGUGUACAUUACAACUAAAAGUAAUGGGAAACACUGUAUUUUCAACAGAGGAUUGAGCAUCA | 0.196 ratio
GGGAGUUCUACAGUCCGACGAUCGAGUAGGGUUCCAGCUCUGGGACAUUGUGCUCAGGAAUUUGAAAACGCUGCUAUACUUACUCUGGUUACUACAUUUCUUCCACUCCCCUUUCCCCUACCUGCCUUAACCAAGGCUCAUACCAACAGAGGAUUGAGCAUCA | 0.321 ratio
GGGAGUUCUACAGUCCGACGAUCUAAUAUGACUCUCCAUAUUUUGGUACCAAUUCUGAGACUGUAUGAAUUUUCAGGUGGAACUUUAGCACACACUGAAGCAAAGUUGUGAAGUGCAGGGCGGGAGGUGGGCGUGAGCUUUCUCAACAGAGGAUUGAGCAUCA | 0.249 ratio
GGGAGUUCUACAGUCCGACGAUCGAGGAGGAAGGACAGUCCAGCUCCCCAAAGAAAAAGAUCAAGUUGAAGAAGCAGAGAGAUGCGGCACGAGCUGCCGAAGGCGCUGCUGCCCAGAAUGAGUAUGAAGUCAAAGCGUCCGAGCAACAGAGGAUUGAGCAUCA | 0.201 ratio
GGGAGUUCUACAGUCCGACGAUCGUUAGACGUGGCCCUGUAUUUGGAAGUCUCUGACGGGUUGACAGUAUUAACACUCAAUUGUAGUUUACAGUAUUUAUACAUGACAGCCAUACAUGACGCCAAGCCAUGGGUUCUCAGUUUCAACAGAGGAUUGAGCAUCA | 0.262 ratio
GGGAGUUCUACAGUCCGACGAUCGCACCCAGGAGCGGGGAAGCGAAGUGCGAGAGACCCCGGACCCCAGCGCUGUCUCUUCCCGCCGCCCGAACCACCAUGACCCACUUCAACAAGGGCCCUUCCUAUGGGCUCUCGGCCGAACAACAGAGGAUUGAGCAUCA | 0.183 ratio
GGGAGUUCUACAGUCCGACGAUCUGUGACUGCACAGAAAAGUUACAGAGCAGGUUUGAUUUUCUGCGCUCUCAGCUGAAUGACAUCUCAUCUUUUAAGAAUAUCUACAGAUAUGCCUUUGAUUUUGCAAGGGAUAAAGAUCAGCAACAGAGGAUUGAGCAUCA | 0.0647 ratio

Series 4
Target: Sal-like protein 4, full length isoform A (SALL4, Homo sapiens, UniProt Q9UJQ4, residues 1-1053)
Chain of UniProt Q9UJQ4 (whole entry, looked up): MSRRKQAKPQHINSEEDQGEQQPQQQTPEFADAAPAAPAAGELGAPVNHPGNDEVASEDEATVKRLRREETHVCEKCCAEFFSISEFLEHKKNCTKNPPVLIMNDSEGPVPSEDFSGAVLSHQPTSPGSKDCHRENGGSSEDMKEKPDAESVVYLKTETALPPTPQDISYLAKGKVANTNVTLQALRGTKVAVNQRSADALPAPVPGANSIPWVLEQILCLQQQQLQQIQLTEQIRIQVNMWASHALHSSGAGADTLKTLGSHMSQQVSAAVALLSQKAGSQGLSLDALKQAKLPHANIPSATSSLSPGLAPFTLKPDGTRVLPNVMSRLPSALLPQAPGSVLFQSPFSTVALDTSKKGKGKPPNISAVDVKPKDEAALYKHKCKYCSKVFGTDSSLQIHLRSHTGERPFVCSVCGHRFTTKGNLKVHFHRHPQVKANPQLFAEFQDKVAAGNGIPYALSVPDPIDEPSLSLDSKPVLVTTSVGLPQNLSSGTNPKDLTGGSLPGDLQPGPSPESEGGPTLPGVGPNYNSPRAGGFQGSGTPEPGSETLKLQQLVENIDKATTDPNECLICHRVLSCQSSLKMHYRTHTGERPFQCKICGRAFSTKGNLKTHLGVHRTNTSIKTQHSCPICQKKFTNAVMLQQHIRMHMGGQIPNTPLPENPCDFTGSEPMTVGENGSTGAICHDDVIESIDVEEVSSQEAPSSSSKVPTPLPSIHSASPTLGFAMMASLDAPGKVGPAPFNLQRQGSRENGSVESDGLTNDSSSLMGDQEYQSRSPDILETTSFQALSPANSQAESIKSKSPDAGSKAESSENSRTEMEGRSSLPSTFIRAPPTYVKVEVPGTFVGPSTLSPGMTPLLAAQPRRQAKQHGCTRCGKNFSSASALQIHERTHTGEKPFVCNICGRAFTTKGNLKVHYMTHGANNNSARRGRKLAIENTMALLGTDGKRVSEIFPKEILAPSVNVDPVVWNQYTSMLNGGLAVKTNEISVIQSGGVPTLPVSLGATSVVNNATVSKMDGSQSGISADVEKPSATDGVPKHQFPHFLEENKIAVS
Technique: universal PBM
Form: double-stranded DNA, one strand shown
Medium: in vitro
Concentration: 600 nM
Setting: 8-mer, flanks averaged, mean of replicates
Reading: higher = stronger binding
Oligonucleotide | E-score
ACATACGG | -0.013
ATAGTGCG | -0.112
CCTCACCC | -0.145
ACAATACC | 0.205
AGATTTCG | 0.0812
GACTATCA | 0.0903
CAATAAAA | 0.344
CACAACCC | -0.23
ACTACAAC | 0.0954
ACTGACAT | 0.161
GCGGCACA | -0.169
GATGCGCA | -0.0537
GGAAATTA | 0.311
CACCAAAG | 0.0195
ATGACCTA | 0.145
ATGAAATA | 0.341
CTAGCTAA | -0.136
AACTCACT | -0.0411
GAATGAAA | 0.169
GTTCATGA | 0.0402
ACGTATGC | 0.0528
CAACCCCA | -0.115
AGACACGC | -0.237
ACCCCAGG | -0.369

A few entries again (series 1):
Oligonucleotide | E-score
AATTTCGA | -0.0124
GCAGCTGC | 0.144
ATCCTGGC | -0.146
CCTATTAG | -0.0322
